Assay results pooled from the literature.
Parts stem from different laboratories: compare values within a part only. Positions count from the first letter of the parent shown.

Study 1 — technique: RNA Bind-n-Seq; form: RNA; matrix: in vitro; tested at: 365 nM; relative to: no-protein control; direction: higher = stronger binding
Target: RNA binding protein fox-1 homolog 2, RRM domain, GST-SBP tag (RBFOX2, Homo sapiens, UniProt O43251-10, residues 100-194)
Notes: natural RNA segment, single round, ends assumed
Residues (chain): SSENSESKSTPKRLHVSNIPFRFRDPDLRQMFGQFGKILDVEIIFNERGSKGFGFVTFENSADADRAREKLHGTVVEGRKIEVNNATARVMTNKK
Sequence | RBNS enrichment (R)
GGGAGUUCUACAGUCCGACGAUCCCGCCACCCACCUCUCCUGCAGGCUGCGACCUGCAGUGGCCCGUCUCAGGCCCUGCUCACUCCCGGGGCCACCAAACGGGCCCCUCUCUCGGGGGAACCGGACAGCAGCUUGGAAUUCUCGGGUGCCAA | 0.495
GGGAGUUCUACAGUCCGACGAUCCAUUGUUAUUCAUUUUGUAAAAUACUAGUCUUUAUUUUCAUUUUUUGUAAAAUUUAAACAUCGUAUGCGCAUAAAGAAAAAGGAAACAAGAAUUAGGGGAAAAUAACAUUUGGAAUUCUCGGGUGCCAA | 0.725
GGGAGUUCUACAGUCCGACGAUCGGGCAGAAACGUUGGGCUCCAUUCCUCACGGAGAGAGCCAAGAAGUGCACAGUCCCAGAGUCACGAGGCGUGGACUUCCUUCCCCACGAUGGGCCAGGGGGCCUUACCAUUGGAAUUCUCGGGUGCCAA | 0.279
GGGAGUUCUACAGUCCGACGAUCUGCUGAAUGACAUUAUUUGAGCUAUUUAAAGCUUACUUUAGUAUGAACUAAAUGAAGGUUAAAACAUGCUUUAGAAAAAUGCACUGAUCUCCGCACUGUGUGUACAGUAUUGGAAUUCUCGGGUGCCAA | 0.344
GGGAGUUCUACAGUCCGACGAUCCUUCUCUGGACUAGAGAGAAGAGGGAGAGGACUGGAAGGGAUCACCAAAUCUCAAAGCAAUGAGAAGCAUUCCUAAAUCCCAAAGUGCCCACAUGGGAAAGAGAUAAAAUUGGAAUUCUCGGGUGCCAA | 0.248
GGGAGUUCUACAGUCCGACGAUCACAUCAUGUAUACGCAGCAUUUAUUUGGAGUUUUUCCUUUGGCUUUUUUUCCUCUCUUUUUCAGUUAUGAAACUUGUAUGCAUGGAUUUCACAUCUCCAUAGCUAGACCCUGGAAUUCUCGGGUGCCAA | 0.567
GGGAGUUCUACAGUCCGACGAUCAGAUAUGAUUCUCAGUGGGAUUUUGGAAACUUUGAUUGCUCAAGCUCACCCUUCUUAACAUUCUGUAAUGGUUACAGAUGAGAAUGGAAAACACAUAUUUUAUGGAUGAGUGGAAUUCUCGGGUGCCAA | 0.36

Study 2 — target: CCNE2, cyclin fold, Cln2 fusion (human); technique: yeast growth competition, sequencing; matrix: yeast; notes: strong parent motif; relative to: not given; direction: higher = stronger binding
Parent: BRCA2 docking peptide (human); PSIKRNLLNEFDR; partner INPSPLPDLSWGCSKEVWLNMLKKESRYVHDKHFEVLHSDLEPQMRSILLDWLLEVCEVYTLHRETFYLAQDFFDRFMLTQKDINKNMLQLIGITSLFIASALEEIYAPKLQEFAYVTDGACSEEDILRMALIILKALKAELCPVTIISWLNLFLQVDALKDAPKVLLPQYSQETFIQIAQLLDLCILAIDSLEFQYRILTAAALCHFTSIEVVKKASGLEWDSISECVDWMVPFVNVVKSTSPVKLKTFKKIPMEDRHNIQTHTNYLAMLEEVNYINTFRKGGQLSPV
Variant | normalised enrichment score
PSIKRNLLNIFDR [E10I] | 1.31
PDIKRNLLNEFDR [S2D] | 0.831
PSMKRNLLNEFDR [I3M] | 0.367
PSIKRNLLNELDR [F11L] | 0.885
PSIKRNLLNEFDD [R13D] | 0.877
PSIKRSLLNEFDR [N6S] | 1.38
PSIKRNLLNEFVR [D12V] | 1.86
PSIKRNLLNEFYR [D12Y] | 2.04

Study 3 — technique: RNA Bind-n-Seq; form: RNA; matrix: in vitro; tested at: not given; relative to: input RNA pool; direction: higher = stronger binding
Target: RING finger protein unkempt homolog, zinc fingers 1-6, GST-SBP tag (UNK, Homo sapiens, UniProt Q9C0B0, residues 30-357)
Notes: RNA with constant flanks, human and mouse sites, ends assumed
Residues (chain): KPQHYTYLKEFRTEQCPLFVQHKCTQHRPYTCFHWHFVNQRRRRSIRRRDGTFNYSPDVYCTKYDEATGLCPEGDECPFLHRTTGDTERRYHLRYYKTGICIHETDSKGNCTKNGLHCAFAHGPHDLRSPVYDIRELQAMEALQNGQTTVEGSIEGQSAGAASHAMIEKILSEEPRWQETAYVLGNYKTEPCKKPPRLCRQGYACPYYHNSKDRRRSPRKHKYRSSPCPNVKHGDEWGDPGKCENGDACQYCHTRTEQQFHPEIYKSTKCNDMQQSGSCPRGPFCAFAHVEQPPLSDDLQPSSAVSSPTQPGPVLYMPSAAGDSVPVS
Sequence | bound/input enrichment [ratio]
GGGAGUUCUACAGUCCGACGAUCAGUGUUCAUACUGACUGGUUACUGGAUCUUUAUGCUGGAAAUAUAAAGACAUUGCAGAAACUCCCACACAUUCUUAAGGAACUGCCUGAGAAUUUGAAAGUGUGUCCUGGGGUACACACUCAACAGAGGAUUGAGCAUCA | 0.232
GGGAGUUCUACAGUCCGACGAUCUGGUAUGGCCUCGGGCAGACCUAUGAAAUCCUUAAGAUGCCAUUUUACUGCCUUUAUUAUUAUAGACGGGCCCACCAGCUUCGACCCAAUGAUUCUCGCAUGCUGGUUGCUUUAGGAGAACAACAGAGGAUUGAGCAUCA | 0.781
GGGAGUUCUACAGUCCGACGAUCUGGAGCUGCCCGUCUCAGUGUGUGAGUGUGUGUGUGCGUGCAUGUGUGUGUGUGUGUGUGUGUGUGUGUGUGUCUGUCUGCCUGUCUCUCUCCUCCUGGACCCAGGGCAGCCAAGGGCAGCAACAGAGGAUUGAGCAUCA | 0.587
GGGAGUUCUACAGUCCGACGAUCUAUAAGAACUCUUGCAGUCUUAGAUGUUAUAAAAAUAUAUAUCUGAAUUGUAAGAGUUGUUAGCACAAGUUUUUUUUUUUUUUUUUUUUAAGCACUUGUUUUGGGUACAAGGCAUUUCUGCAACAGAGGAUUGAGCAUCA | 3.87
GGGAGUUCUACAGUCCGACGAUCAAGGAAUCAACGUUAAUUCAAAAAAAUAUAUUUGACCUUUCCAAUCAUUUAUCUCAGGUAGCACAGAAUACACAGAUAUCUUCUGGUAUGUCCUCAAAGAUAGAAGAUAAUGCAAAUAAUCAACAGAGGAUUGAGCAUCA | 0.522
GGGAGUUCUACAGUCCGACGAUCCUGAAAACACUCUUCUGCUACUUUCGAAGAGUCACAGAGAAAAAACCUACAGGAUUGGUGACAUUUACAAGACAGAGUCUUGAAGAUUUUCCAGAAUGGGAAAGGUGUGAAAAGCCUCUGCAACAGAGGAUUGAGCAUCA | 0.093
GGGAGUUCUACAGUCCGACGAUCGAAUUUGCCCAAGAUAAAUAUAUUAAAAAGAAGAAAAAAAAAUAUGAAGCCAUCAUUACUGUUGUGAAGCCAUCCACCCGUAUUCUUUCAAUUAUGUAUUAUGCAAGAGAACCUGGAAAACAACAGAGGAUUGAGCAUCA | 2.22
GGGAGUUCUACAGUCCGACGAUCGAAAAUGCUUUUGAGCGACUGCUGGACAUUAUUACAGAGGAGGGGAACAGUGACGGAGGUAUAGUAGUGGAAGAUUGUUUGAUUUUACUUCAAAACUUGUUAAAAACCAACAAUUCCAAUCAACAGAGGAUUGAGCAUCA | 0.633

Further values, each from its own experiment
Molecule | target | assay | test system | setting | scale | measurement | result
PhoQ, residues 284 288 289 292 302 303 AGGLSV | PhoP, residues 12 14 15 18 19 YHFSH (Escherichia coli, UniProt P23836) | Sort-seq, refers to: YFP reporter | E. coli | PhoQ-PhoP variant library, added: 10 µM Mg2+ | relative to: high Mg2+ state, higher = stronger signaling | fold induction | 2.44
